Results gathered from unrelated publications.
Lines come from different studies, so protocols differ.
Cell line: HFF

Structure (SMILES)	read-out	technique	concentration	time	setting	endpoint	result
C=C(C)[C@@H]1CCC=C2CC[C@]3(C)[C@H](CC[C@@H]4[C@@]5(C)CCCNC(C)(C)[C@@H]5CC[C@]43C)[C@H]21	cell growth or viability	ATP luminescence	–	–	–	CC50	14.9 µM
Nc1nc2c(ncn2COCCOC(=O)CCC(=O)OC[C@H](N)C(=O)O)c(=O)[nH]1	cell growth or viability	–	–	–	–	CC50	> 300 µM
O=C(NCc1ccc(F)cc1)c1nc(NCCO)c2cccnc2c1O	cell growth or viability	MTS	10 µM	7 days	–	viability	98%
CC(C)CCN(c1nc(C#N)nc(NC2COC2)n1)C(C)c1ccc(F)cc1 (stereo not drawn)	cell growth or viability	MTS	–	7 days	–	CC50	29.1 µM
N[C@H]1C[C@@H]1c1ccc(-c2cccc(O)c2)cc1	–	MTT	50 µM	12 h	–	cytotoxicity	not toxic
N#Cc1nc(N2CCOCC2)nc(N(Cc2ccc(F)cc2)CC2CCCNC2)n1 (stereo not drawn)	cell growth or viability	MTS	–	7 days	–	CC50	61.1 µM
Nc1nc2c(ncn2COCCOC(=O)[C@@H](N)CO)c(=O)[nH]1	cell growth or viability	–	–	–	–	CC50	> 300 µM
CC(C)(C)c1cc(-c2nc3c4ccccc4c4ccccc4c3o2)c(O)c(C(C)(C)C)c1	–	colorimetric viability	concentration not given	72 h	at anti-Trypanosoma effective doses	cytotoxicity	not toxic
COc1ccc(-c2nc(C(=O)NCc3ccc(C)cc3)c(O)c3ncccc23)c(OC)c1	cell growth or viability	MTS	–	7 days	–	CC50	8.4 µM
O=C(CCCN1C(=O)c2cccc3cccc(c23)C1=O)NO	–	LDH release	100 µM	48 h	–	cytotoxicity	not toxic
C[C@H]1O[C@@H]2C3=C(O[C@]2(C)[C@@]1(O)C=O)C(=O)c1c(O)cccc1C3=O	cell growth or viability	MTT	–	48 h	–	CC50	7.6 µg/mL
C[C@H](N)C(=O)OCCOCn1cnc2c(=O)[nH]c(N)nc21	cell proliferation	–	–	–	10% FBS	CC50	> 300 µM
N#Cc1nc(N2CCOCC2)nc(N(Cc2ccc(F)cc2)CC2CCCCC2)n1	cell growth or viability	MTS	–	7 days	–	CC50	> 100 µM
Nc1nc2c(ncn2COCCOC(=O)[C@@H](N)CS)c(=O)[nH]1	cell proliferation	–	–	–	10% FBS	CC50	> 300 µM
O=C(NC1CCCCC1)c1nc(Cl)c2cccnc2c1O	cell growth or viability	MTS	10 µM	7 days	–	viability	98%

Repeated from above:
Structure (SMILES)	read-out	technique	concentration	time	setting	endpoint	result
C[C@H]1O[C@@H]2C3=C(O[C@]2(C)[C@@]1(O)C=O)C(=O)c1c(O)cccc1C3=O	cell growth or viability	MTT	–	48 h	–	CC50	7.6 µg/mL
